# Measured values of several laboratories.
# Parts stem from different laboratories: compare values within a part only. Substitutions count along the parent as printed.

# Series 1 — target: CCNE1, cyclin fold, Cln2 fusion (human); technique: yeast growth competition, sequencing; matrix: yeast; notes: strong parent motif; relative to: not given; reading: higher = stronger binding
# Parent: GMNC docking peptide (human); KNAKRNLSSEFAN
Variant,normalised enrichment score
KNAKRNGSSEFAN [L7G],-0.05
KNAKRNLSSEFMN [A12M],1.26
KNACRNLSSEFAN [K4C],2.15
KNAKRNLSVEFAN [S9V],1.15
KNAKRNLSPEFAN [S9P],0.661
KNAKRNMSSEFAN [L7M],0.627
KNAKRNLSQEFAN [S9Q],1.34
KAAKRNLSSEFAN [N2A],1.01
KNAKRNLSGEFAN [S9G],0.94
KNAKRNLSSEGAN [F11G],0.143
KIAKRNLSSEFAN [N2I],0.431
KNIKRNLSSEFAN [A3I],0.514
KNQKRNLSSEFAN [A3Q],0.198
KYAKRNLSSEFAN [N2Y],0.586
KNAKRNLSAEFAN [S9A],1.51
KDAKRNLSSEFAN [N2D],1.09
KNAKRNLMSEFAN [S8M],3.97
KNATRNLSSEFAN [K4T],0.227
KNFKRNLSSEFAN [A3F],1.02
KNAKDNLSSEFAN [R5D],0.00944
KNAKRNHSSEFAN [L7H],0.268
KNAKRNLSSEWAN [F11W],0.954
KNAHRNLSSEFAN [K4H],-0.194
KKAKRNLSSEFAN [N2K],1.45
KNAKRNLSTEFAN [S9T],1.52

# Series 2 — technique: Sort-seq; item: YFP reporter; matrix: E. coli; notes: PhoQ-PhoP variant library; together with: 10 µM Mg2+; relative to: high Mg2+ state; reading: higher = stronger signaling
# Substance: PhoQ, residues 284 288 289 292 302 303 SNGLAW
target,fold induction
"PhoP, residues 12 14 15 18 19 GMGLL (Escherichia coli, UniProt P23836)",13.5
"PhoP, residues 12 14 15 18 19 LFHKL (Escherichia coli, UniProt P23836)",4.76
"PhoP, residues 12 14 15 18 19 QQAYL (Escherichia coli, UniProt P23836)",8.65

# Series 3 — technique: DHFR PCA, deep sequencing; matrix: yeast; together with: (+)-ABA 0.39 µM; relative to: wild-type fitted maximum; reading: higher = stronger binding
# Target: ABI1, truncated, D143A, DHFR fusion (Arabidopsis thaliana)
# Notes: methotrexate growth selection, single substitutions
# Parent: PYL1, truncated, DHFR fusion (Arabidopsis thaliana); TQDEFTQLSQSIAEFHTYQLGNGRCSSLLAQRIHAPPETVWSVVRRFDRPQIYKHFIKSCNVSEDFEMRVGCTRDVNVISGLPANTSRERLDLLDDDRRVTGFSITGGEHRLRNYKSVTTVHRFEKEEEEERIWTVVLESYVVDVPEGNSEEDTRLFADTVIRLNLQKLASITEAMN; partner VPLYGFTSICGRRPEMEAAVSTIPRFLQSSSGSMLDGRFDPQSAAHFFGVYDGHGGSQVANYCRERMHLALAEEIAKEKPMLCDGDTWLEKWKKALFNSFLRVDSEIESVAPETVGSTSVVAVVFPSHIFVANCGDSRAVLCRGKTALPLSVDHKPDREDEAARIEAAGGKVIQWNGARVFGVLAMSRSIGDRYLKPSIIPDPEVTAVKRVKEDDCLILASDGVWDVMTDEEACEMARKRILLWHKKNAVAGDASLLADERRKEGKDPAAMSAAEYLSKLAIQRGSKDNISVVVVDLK
Variant,relative binding score [%]
D159G,5.04
L20F,22
H55R,69.8
L91M,11
Y53L,-3.25
A84P,17.2
P83N,0.0878
Q2W,55
P36F,2.45
E129L,30.4
T86E,5.8

# Series 4 — technique: universal PBM; form: double-stranded DNA, one strand shown; matrix: in vitro; concentration: 600 nM; reading: higher = stronger binding
# Target: Sal-like protein 4, full length isoform A (SALL4, Homo sapiens, UniProt Q9UJQ4, residues 1-1053)
# Sequence of UniProt Q9UJQ4 (whole entry, looked up): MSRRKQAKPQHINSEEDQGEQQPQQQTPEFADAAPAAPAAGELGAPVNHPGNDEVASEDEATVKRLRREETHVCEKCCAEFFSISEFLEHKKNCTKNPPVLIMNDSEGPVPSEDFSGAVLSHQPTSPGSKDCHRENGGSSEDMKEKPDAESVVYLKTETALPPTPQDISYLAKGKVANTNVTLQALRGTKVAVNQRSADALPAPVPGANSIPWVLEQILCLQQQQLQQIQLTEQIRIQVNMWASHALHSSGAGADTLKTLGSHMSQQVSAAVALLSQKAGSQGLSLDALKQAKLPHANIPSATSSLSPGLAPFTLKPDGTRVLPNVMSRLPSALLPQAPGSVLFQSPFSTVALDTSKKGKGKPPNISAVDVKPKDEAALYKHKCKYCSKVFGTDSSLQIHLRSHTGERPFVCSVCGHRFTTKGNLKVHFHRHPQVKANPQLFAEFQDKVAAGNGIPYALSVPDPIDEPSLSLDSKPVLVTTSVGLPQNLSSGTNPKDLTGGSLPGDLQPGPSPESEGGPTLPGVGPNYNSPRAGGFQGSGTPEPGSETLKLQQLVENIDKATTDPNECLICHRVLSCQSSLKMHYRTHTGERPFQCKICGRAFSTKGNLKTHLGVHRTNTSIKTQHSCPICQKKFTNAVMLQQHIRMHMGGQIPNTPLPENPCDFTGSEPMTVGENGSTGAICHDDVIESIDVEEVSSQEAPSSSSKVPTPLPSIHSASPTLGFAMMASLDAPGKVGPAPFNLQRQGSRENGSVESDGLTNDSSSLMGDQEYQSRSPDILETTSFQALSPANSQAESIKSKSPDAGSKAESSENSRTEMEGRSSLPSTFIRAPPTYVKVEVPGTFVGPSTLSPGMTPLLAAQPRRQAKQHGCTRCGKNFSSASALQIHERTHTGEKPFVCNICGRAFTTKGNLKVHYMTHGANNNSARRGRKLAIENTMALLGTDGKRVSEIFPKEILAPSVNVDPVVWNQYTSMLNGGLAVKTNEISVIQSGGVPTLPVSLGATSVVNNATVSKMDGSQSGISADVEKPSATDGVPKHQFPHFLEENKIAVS
# Notes: 8-mer, flanks averaged, mean of replicates
Oligonucleotide,E-score
AAGCGACA,-0.152
GCGAATAC,0.0421
ATGTGCTA,0.15
GCAGTTAA,0.105
GCTGCGCC,-0.389
GCTAGCCC,-0.171
GATGCCGC,-0.284
CCTCCTGA,-0.173
ATCAGCTA,0.117
CTCCCTGC,-0.264
ATCCTCAG,0.00245
ATGTGAAA,0.28
GGGCAAAA,0.0516
ACCTGTAT,0.146
ATGCGGGC,-0.231
GACAATGC,0.138
ACAGTCAT,0.13
ATCGCCCG,-0.323
GACGTACC,-0.137
CTTCGTTA,0.127
CGGGGAAC,-0.225
GACATTCA,0.0511
ACAGAGCT,-0.217
AAGCTTTG,0.0512
CACCTCCA,-0.0504

# Series 5 — technique: protein-binding microarray; form: double-stranded DNA, one strand shown; matrix: in vitro; concentration: 0.8 µM; notes: whole 60-bp probe, no competitor; reading: higher = stronger binding
# Target: Centromere-binding protein 1, full length, N-terminal tag (CBF1, Saccharomyces cerevisiae, UniProt P17106, residues 1-351)
# Sequence of UniProt P17106 (whole entry, looked up): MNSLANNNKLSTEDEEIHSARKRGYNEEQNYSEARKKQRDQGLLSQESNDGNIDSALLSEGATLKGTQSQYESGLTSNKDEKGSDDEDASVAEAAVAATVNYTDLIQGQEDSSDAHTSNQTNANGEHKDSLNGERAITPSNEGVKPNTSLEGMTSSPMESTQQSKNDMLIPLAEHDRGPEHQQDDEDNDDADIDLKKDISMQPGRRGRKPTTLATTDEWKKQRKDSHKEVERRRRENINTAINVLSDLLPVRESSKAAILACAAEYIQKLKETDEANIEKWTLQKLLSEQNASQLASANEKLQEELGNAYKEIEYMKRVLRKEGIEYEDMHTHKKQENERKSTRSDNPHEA
Oligonucleotide,fluorescence intensity [a.u.]
GAATCTTCCATTAGCAGCATGATCTTGTGTAGATAGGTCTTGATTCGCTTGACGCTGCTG,582
GAATATTCTAAGCCGCACGTAGTAACAAATCTTTAGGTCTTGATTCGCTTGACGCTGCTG,519
CTATTGGAAACTGGTCACGTGGATGTGAGTCTATTCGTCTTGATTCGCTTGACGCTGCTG,13700
GAATAGGCAGAGCATCAGATCATAAAGATAGTGTAGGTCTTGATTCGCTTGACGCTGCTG,539
GAAGTTAATGGTCGTCCACGTGTGTATACTACATAGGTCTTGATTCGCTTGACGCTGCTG,2590
CTATGTGACATAATCCACGTTTGTCTCTTATCTTTCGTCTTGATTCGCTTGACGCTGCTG,515
CTATGACTAGAGAATCACCTTTTTAGCGAAATATTCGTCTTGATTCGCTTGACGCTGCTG,551
GAAGTACATATACCTCACCTGAGTTTTGCTTTTTAGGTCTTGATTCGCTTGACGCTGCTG,493
CTATAAATACTAAATGGTCATGAGGAAAGAAAATTCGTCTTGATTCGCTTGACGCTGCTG,975
CCTAACTACTATAGCCACGTTTGATAGCTTCGTACAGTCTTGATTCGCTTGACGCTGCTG,543
CTAGGTAGATCTCAGCACGTGTGCATGCGCATATTCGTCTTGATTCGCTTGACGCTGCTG,5490
CTACCTTACGTCGGTGACGACGATATACAGATCTTCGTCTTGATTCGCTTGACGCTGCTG,475
CTACGCGATCAGCCGCACATGTCCATTATCATTTTCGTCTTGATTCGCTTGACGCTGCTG,899
CTAAATATACTTGTTAACGTGATTAAACGTTTTTTCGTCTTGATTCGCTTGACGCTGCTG,1110
CTATAGATTTTGGAGCAACTGATGTGTGTGAGTTTCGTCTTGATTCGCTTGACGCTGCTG,516
CTATTTCTGCTCCATCGCGTGCTCGAGACTATATTCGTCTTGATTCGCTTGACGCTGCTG,668
CTAGTTTTTGCGCAGATCGTGATATAAAATGTTTTCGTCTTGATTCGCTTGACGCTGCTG,935
GAAGTGGGTGTGGGTGTGGTGTGGGTGTGTGGGTAGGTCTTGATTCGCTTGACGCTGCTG,535
GAATTGGTGCCGTACGGGCACGTGTATTATTTTTAGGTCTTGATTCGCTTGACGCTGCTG,6480
GAACCTAACTACGAGCACGTACGTCTAGAATTCTAGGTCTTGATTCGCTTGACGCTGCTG,545
GAATCGGTGCATTGGCATGCGCAAGCATTCGATTAGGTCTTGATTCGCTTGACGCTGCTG,497
GAAATTGAAACACTTGCCGTGATCAAGATTATATAGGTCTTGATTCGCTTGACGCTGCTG,771
GAATTATAGGTATTTTATGTCACGTACGGTTTTTAGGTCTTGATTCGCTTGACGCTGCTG,1360
GAATCGATGAACAAGCACGTTATTTCTTAAACGTAGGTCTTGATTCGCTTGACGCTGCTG,851
CTAGTCTTTAATTGCCTCCTGACTTTGTTTTGTTTCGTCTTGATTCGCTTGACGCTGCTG,678

# Series 6 — technique: RNA Bind-n-Seq; form: RNA; matrix: in vitro; concentration: 365 nM; relative to: no-protein control; reading: higher = stronger binding
# Target: RNA binding protein fox-1 homolog 2, RRM domain, GST-SBP tag (RBFOX2, Homo sapiens, UniProt O43251-10, residues 100-194)
# Notes: natural RNA segment, single round, ends assumed
# Construct (chain): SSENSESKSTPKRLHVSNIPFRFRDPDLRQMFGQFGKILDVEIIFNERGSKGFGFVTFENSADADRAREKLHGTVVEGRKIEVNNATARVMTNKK
Oligonucleotide,RBNS enrichment (R)
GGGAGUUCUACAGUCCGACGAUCCUGCCCACAUCCUUGCAUCACUGUUUGCCCUGCCUAUCUCUUUCCAAAUUGUCAACUCCCUUGCCCAAUACUGGUGGGCUGUGAACAGCCUAAGGGACCUCGCUCCAGCUUGGAAUUCUCGGGUGCCAA,1.6
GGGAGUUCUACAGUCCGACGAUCAUUGGGGUCUACCAGCGUGCAUUCCAUUUCCCACUGACCAUGCAGGUGCACGUCGCGGAAAUACUGGUUUAACUACUAGUGUGUUACUGCCUCAUUUAUCUACAUAACAUUGGAAUUCUCGGGUGCCAA,0.319
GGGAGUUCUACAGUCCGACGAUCGAGUAAGGGCAAAAUAAUACCCCUUUCUCUAUGUAUCUCUGUAUGCACACGCACUAUAUAUAUAUAUAUAUAUAUAUAUACAUUCAUGUAAUCACCACUUCUCGAUGUCUUGGAAUUCUCGGGUGCCAA,0.824
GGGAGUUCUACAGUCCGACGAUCGUGUCCAGAAUACUUGCAGUAUAAAUGAAGAUUUGGUUUUUGUAUAAAAAAAUAAUGCUGUUAAACAGGAGUUGACCUUCAUUUAGUUGAUGUAAUACAUAGCUGUAUGGUGGAAUUCUCGGGUGCCAA,0.602
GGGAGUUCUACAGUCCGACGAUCUGCCCUCUUCCCUCUUUACACAUCAGGUGUCUCUGGCACAGGACUUGGCACUAAGCUCCAUGCUGAGACACCAGGCUAUGUGGGCCCCCACCUUGUUUCCCAGCCUGCACUGGAAUUCUCGGGUGCCAA,0.488
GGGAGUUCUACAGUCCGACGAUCAAUAAAUUCCGGGAUAGUCGUUUUGUUCAAGGAAAUGUUUUGUAAAUUGAGCUCACACUAUAUAAUCUUUAUUGUCCUAUCCUGAUGUAUAAUACAGCAGGUAUAAUUACUGGAAUUCUCGGGUGCCAA,0.632
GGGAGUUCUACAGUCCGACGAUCCAAGUUCCUCCAGUUGCCCUUGUCCUCAGGUGCAGUGGGACUGUUGUGAGCCCCAGGGAUGGGCACAAAGAGGACUUUUAUUUUGUUAGCUCGGACAGUGCAGUGGUGCAUGGAAUUCUCGGGUGCCAA,2.23
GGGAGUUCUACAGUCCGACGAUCUUUUUUAAUUGGUGUUAGAUGACAUGAUUAAUAAAAAAGGCAAGAUAUUUUCAGAAUUUGAAUUUCAGUUUUUUUUUUCUUUUGAAAUGUCCCUUUAAGAUUUUUUUAUUUGGAAUUCUCGGGUGCCAA,1.05
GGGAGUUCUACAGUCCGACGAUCCAGUGGGACCACCCUGGGCCUCCUUUCUACCUCCACUCAGCACCCUGUUGGCCAAGGAGAAUUUCUGCGGUGGGAGGCAGUGCUCUGCUAGUCAGGAUUGAUAAACAGCUUGGAAUUCUCGGGUGCCAA,0.46
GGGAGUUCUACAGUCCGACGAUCCAAAUUAAAAUUCCAAAAUUCAUUGAAAUCCUAAAGCCUUGAUAUUAUAUUCUUUAUAAGGCGUGUGCCAGCCUGUAUAGUAUAUAAGAGAGAGGGGUGUUUGUGUGUAUUGGAAUUCUCGGGUGCCAA,1.49
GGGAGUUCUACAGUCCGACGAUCGUUAAUACAAGGUAUAAUAAAAUUAUCGCAACCCCUCUCCUUCCAGUAUAACCAGCUGAAGUUGCAGAUGUUAGAUAUUUUUCAUAAACAAGUUCGAGUCAAAGUUGAAAUGGAAUUCUCGGGUGCCAA,0.327
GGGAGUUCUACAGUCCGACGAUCUAAAUUUGGAGAUACGUAAAGCCUUGUUUUCUCUGUGUGGUUCAGCUACUUUCCAUUUGGUAUUACACAGUCAAAUUUACAUUUAUCUAUUAAAAUUGCCAUUUUAUUAAUGGAAUUCUCGGGUGCCAA,8.07

# A few entries again (series 1):
Variant,normalised enrichment score
KNQKRNLSSEFAN [A3Q],0.198
KYAKRNLSSEFAN [N2Y],0.586
KNAKRNLSAEFAN [S9A],1.51
KDAKRNLSSEFAN [N2D],1.09
KNAKRNLMSEFAN [S8M],3.97
KNATRNLSSEFAN [K4T],0.227
KNFKRNLSSEFAN [A3F],1.02
KNAKDNLSSEFAN [R5D],0.00944
KNAKRNHSSEFAN [L7H],0.268
KNAKRNLSSEWAN [F11W],0.954
